# Measurements of several laboratories.
# Every numbered part comes from another study and shows a few of its results, in no order.
# UniProt P54762, sequence (whole entry, looked up): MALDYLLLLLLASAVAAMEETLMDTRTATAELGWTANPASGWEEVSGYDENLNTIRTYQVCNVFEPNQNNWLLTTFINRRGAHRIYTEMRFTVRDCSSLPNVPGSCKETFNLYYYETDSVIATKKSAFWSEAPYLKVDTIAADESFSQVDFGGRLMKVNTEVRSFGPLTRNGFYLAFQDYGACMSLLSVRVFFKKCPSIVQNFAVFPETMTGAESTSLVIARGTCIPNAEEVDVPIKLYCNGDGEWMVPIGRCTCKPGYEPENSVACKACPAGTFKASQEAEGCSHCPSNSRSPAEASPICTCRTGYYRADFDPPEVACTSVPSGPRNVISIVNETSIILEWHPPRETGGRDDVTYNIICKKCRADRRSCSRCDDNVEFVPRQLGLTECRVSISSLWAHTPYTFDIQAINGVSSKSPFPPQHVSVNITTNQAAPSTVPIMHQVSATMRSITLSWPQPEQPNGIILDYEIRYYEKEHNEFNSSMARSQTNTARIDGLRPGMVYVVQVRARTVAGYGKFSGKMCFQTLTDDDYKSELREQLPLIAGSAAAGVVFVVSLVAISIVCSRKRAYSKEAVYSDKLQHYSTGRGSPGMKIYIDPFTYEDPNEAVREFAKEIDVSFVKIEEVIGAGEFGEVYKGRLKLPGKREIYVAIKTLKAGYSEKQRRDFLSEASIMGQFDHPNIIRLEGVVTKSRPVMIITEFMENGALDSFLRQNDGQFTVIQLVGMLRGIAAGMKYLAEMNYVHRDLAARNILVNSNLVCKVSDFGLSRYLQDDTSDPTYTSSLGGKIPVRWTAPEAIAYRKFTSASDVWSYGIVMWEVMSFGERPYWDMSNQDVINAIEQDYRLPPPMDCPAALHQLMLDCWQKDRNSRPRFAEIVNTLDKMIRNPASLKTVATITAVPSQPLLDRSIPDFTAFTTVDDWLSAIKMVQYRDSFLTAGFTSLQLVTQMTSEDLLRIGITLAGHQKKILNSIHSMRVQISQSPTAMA
# UniProt Q99759, sequence (whole entry, looked up): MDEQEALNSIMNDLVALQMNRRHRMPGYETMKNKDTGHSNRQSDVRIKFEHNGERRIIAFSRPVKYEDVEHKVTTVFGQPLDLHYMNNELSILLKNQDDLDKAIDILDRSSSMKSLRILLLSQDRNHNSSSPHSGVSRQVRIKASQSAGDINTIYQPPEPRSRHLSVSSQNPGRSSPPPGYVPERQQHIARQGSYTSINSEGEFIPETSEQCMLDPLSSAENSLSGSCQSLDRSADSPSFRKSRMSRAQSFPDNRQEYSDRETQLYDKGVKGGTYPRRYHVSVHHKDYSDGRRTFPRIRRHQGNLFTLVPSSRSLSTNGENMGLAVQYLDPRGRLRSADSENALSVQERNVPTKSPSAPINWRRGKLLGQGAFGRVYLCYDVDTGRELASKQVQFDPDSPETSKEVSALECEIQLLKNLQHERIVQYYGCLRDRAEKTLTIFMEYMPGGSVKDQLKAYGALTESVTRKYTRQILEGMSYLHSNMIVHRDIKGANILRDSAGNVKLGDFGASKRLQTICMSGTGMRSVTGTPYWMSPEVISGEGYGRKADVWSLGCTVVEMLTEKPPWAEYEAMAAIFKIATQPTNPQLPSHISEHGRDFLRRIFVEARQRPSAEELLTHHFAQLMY
# UniProt O95747, sequence (whole entry, looked up): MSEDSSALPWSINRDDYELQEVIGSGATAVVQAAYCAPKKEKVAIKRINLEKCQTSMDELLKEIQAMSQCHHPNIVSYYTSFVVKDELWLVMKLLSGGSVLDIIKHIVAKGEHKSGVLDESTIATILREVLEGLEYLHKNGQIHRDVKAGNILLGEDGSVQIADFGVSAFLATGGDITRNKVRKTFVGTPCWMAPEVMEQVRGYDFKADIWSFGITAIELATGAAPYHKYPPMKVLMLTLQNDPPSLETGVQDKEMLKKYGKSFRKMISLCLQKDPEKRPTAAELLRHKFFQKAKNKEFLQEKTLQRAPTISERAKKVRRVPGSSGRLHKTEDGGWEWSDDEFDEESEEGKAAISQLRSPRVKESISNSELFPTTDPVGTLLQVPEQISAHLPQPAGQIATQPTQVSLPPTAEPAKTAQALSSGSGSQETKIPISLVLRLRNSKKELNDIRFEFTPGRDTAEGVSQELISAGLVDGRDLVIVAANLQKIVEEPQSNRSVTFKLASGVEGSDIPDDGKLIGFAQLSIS
# UniProt P05771, sequence (whole entry, looked up): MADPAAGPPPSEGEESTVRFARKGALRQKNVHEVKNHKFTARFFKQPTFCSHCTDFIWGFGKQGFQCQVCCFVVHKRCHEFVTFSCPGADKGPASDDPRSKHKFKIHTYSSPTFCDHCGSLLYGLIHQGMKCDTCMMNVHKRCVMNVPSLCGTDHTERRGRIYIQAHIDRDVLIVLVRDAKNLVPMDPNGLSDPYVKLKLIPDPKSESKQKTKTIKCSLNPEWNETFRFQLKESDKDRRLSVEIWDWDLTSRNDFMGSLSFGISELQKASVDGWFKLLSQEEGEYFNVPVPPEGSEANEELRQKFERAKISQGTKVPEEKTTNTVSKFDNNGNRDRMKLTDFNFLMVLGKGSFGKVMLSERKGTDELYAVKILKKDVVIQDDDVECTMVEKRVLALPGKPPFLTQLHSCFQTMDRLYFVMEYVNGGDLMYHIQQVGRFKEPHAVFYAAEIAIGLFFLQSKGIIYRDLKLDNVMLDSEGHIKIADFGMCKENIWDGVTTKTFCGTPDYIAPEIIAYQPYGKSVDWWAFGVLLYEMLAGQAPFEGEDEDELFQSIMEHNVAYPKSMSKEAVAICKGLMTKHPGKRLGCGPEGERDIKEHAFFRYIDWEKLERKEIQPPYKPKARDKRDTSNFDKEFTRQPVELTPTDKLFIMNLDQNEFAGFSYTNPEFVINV
# UniProt Q9UQM7, sequence (whole entry, looked up): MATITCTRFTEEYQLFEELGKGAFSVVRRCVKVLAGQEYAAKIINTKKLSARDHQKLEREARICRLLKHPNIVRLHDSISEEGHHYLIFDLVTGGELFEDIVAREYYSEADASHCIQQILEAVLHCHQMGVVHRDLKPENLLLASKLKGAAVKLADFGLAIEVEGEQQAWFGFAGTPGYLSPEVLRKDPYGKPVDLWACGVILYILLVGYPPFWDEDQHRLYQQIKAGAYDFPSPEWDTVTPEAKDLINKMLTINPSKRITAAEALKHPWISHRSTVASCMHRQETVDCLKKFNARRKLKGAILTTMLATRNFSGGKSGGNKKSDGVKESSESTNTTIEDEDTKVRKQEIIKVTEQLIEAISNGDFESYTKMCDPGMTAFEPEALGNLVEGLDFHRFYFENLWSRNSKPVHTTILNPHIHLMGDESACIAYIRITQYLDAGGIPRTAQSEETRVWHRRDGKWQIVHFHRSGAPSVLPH
# UniProt P51955, sequence (whole entry, looked up): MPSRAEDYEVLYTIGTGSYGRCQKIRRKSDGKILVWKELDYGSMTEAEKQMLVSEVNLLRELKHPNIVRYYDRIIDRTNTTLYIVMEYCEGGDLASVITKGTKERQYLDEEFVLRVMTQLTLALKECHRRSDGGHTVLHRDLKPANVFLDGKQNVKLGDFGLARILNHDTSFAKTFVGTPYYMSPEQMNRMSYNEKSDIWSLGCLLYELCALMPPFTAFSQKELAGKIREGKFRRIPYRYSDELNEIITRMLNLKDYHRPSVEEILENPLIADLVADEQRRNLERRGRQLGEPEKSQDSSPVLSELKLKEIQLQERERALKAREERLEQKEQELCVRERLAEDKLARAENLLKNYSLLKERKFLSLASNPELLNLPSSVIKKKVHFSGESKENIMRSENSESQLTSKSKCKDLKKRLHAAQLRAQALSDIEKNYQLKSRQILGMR
# UniProt P36897, sequence (whole entry, looked up): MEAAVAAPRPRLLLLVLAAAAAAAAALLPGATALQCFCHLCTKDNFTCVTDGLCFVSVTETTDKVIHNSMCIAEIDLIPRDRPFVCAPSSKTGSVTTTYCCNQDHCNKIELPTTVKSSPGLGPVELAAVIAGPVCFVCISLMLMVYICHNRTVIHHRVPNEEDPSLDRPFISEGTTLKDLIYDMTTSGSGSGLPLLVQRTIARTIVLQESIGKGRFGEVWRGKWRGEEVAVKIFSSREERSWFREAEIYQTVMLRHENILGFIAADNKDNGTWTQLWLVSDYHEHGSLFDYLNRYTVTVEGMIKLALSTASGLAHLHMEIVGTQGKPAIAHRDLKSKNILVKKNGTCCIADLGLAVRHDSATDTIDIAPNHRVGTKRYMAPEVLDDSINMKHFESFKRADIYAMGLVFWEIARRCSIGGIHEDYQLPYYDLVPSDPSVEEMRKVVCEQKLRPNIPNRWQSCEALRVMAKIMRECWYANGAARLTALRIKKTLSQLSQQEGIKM
# UniProt Q9UIK4, sequence (whole entry, looked up): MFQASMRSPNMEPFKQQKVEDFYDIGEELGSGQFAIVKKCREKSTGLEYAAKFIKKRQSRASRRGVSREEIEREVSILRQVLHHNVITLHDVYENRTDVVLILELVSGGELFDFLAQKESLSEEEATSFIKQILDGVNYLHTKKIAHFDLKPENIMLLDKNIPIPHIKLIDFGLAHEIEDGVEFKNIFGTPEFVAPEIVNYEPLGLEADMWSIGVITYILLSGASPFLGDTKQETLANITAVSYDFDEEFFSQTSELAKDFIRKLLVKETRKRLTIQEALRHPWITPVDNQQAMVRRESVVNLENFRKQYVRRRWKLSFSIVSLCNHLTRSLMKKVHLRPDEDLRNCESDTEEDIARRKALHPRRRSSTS

# Set 1
# SMILES: COc1ccc2c(O[C@@H]3C[C@H]4C(=O)N[C@]5(C(=O)O)CC5/C=C\CCCCC[C@H](NC(=O)OC5CCCC5)C(=O)N4C3)cc(-c3csc(NC(=O)C(C)C)n3)nc2c1C (stereo partly shown)
# Read-out: cell-free assay
# Method: competition with immobilised ligand
# Tested at: 1 µM
target,remaining binding
"Epidermal growth factor receptor (EGFR, Homo sapiens, UniProt P00533, del752-759)",75%
"Ephrin type-B receptor 1 (EPHB1, Homo sapiens, UniProt P54762)",100%
"Hepatocyte growth factor receptor (MET, Homo sapiens, UniProt P08581)",99%
"Calcium/calmodulin-dependent protein kinase type II subunit alpha (CAMK2A, Homo sapiens, UniProt Q9UQM7)",100%
"1-phosphatidylinositol 3-phosphate 5-kinase (PIKFYVE, Homo sapiens, UniProt Q9Y2I7)",100%

# Set 2
# Target: Centromere-binding protein 1, full length, His-tagged (CBF1, Saccharomyces cerevisiae, UniProt P17106, residues 1-351)
# UniProt P17106, sequence (whole entry, looked up): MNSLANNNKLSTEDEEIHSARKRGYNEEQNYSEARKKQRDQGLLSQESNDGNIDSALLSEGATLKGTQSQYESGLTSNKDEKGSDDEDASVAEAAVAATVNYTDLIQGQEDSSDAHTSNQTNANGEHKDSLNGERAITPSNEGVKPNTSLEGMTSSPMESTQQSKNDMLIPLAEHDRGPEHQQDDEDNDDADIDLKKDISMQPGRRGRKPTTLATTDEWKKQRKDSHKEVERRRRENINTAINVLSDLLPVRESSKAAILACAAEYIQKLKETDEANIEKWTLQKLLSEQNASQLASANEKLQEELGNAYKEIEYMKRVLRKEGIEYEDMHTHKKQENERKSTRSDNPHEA
# Method: competition protein-binding microarray
# Form: double-stranded DNA, one strand shown
# Medium: in vitro
# Tested at: 2 µM
# Setting: whole 60-bp probe, lowest competitor level
# With: Pho4 competitor, 0.05 µM
# Reading: higher = stronger binding
# Constant ends, left off below: … GTCTTGATTCGCTTGACGCTGCTG
Oligonucleotide,fluorescence intensity
CTTTCCCGATCTTGCGCAGTGGGTGTAGCACATTTG,73.7 a.u.
TGGCGCTGGGGTCCTCACGGGCGCTTTGTTCAAGTC,63.3 a.u.
CTATCCACCAATATGCTCGTGGGTAACATCTAGAGA,74.9 a.u.
GATTGACCAATTCGGCACGTGTATATTTCGTTGACC,1870 a.u.
TAGTGGAAGGATGTACTCGTGATGGGGTTATGGTAG,276 a.u.
TTGTTGAGTAATCGGCACGTCACCGCACAACAGCCG,60.5 a.u.
TTTCGATAATGTTAAGGAGTTTGAATTAACTACCAG,84.5 a.u.
GCATTGATCAATTTGCACGATGGAAAATTTTTCACT,89.1 a.u.

# Set 3
# Target: RNA binding protein fox-1 homolog 2, RRM domain, GST-SBP tag (RBFOX2, Homo sapiens, UniProt O43251-10, residues 100-194)
# Method: RNA Bind-n-Seq
# Form: RNA
# Medium: in vitro
# Tested at: 365 nM
# Setting: natural RNA segment, single round, ends assumed
# Reference: no-protein control
# Reading: higher = stronger binding
# Constant ends, left off below: GGGAGUUCUACAGUCCGACGAUC … UGGAAUUCUCGGGUGCCAA
# Construct (chain): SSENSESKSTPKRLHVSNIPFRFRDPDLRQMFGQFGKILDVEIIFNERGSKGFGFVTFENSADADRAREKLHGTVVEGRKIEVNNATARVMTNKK
Oligonucleotide,RBNS enrichment (R)
GUUUGUAUAGGGACCAUGUUUCCCAACGCACUUUGAGUGCAGUUUAGGAGGUAUCCUUUGGAUGCUGAAGUGUUGGGAUUUUGAGGACAUGCGGAUGAUUUAUGAGAAUA,0.771
UGCAAAGUGCUUUAUGCUUUUUAAUAAUUGUUAGCUGUUUCUCACAUCAUUGUGAGUUAGAUCAGUAUUAUGACCGCUGUCUUAGGGAAGGCCUGGGAACAGGAGUGUGC,0.487
ACAUAUGAAAAGUGAAAGUUGUGAGUUGUUUUCCUCUUAUUUAAACAUUGGCCUAUUAUAAUCUGUGUUGGUUAUUUUUCUCCUGUAAGCAUCCUGAUUUUUCUGUAGGA,0.92
AGCCCUUUGAUGGGGUCUUAACUCAUAUCAGUCAUUUGGGCUUCUCUGAUCCUGAGGCUAAGAAAGGGGAAGAGACCCUCAGGAGGCAGCUUCCACUCCAGGGCUCUUGA,0.589
GCCUGACUCCGGCCAGGAGGGUCAGAAGAAGGACAAAGGGGAGAGCUGGGACAAGGCCUUGCCCCCUUCCUGCCAUCUCCCCAACCCACAGUCUCUCCACCUUUGCUUCU,0.359
AUUUUUUUGUAAUUAUUAUAUUCUAGUUUGGAGUACUUGCUGUAGGAUUCAAGCUGUCUUUGCACUAGCUCUAAAGAAGAUUUUCUUCUGGUUUUAGAGAACUAAUUUUG,0.899
UUUCAUAGCCAACAAGAAUCAGUAGAAGUGCUGGGAGCAGCAGCUGGGGAAGCUGCCGCCCACGGGCUCUGCCCCUUCCAGCUGGAGCCGCCCGUGCCUCCAGGGGCCAA,0.429
GUCUAGGGCACACCACCCCCAGCUGCUCACACACAGACCACAUAUUCCUUCUGGGAAGGCCAGCAUCAUCCUGAAGAUGACCUGUGGGGUUGGUCCUUGAUGGCUGUCCC,0.708

# Set 4
# Structure (SMILES): CN(C)C[C@H]1CCn2c(c(C3=C(c4cn(C)c5ccccc45)C(=O)NC3=O)c3ccccc32)C1
# Read-out: enzyme activity
# Mode: inhibitor
# Tested at: 0.5 µM
# Reference: control
target,remaining activity [%]
"Death-associated protein kinase 2 (DAPK2, Homo sapiens, UniProt Q9UIK4)",90.4
"G protein-coupled receptor kinase 3 (GRK3, Homo sapiens, UniProt P35626)",102
"Serine/threonine-protein kinase OSR1 (OXSR1, Homo sapiens, UniProt O95747)",98.4
"Serine/threonine-protein kinase Nek2 (NEK2, Homo sapiens, UniProt P51955)",106
"TGF-beta receptor type-1 (TGFBR1, Homo sapiens, UniProt P36897)",99.8
"Protein kinase C beta type, isoform beta-I (PRKCB, Homo sapiens, UniProt P05771)",3.71
"cAMP-dependent protein kinase catalytic subunit alpha (PRKACA, Homo sapiens, UniProt P17612)",87.2
"Mitogen-activated protein kinase kinase kinase 3 (MAP3K3, Homo sapiens, UniProt Q99759)",86.1
"Mitogen-activated protein kinase 9 (MAPK9, Homo sapiens, UniProt P45984)",105
"Death-associated protein kinase 1 (DAPK1, Homo sapiens, UniProt P53355)",94.1

# For quick reference, copied from above (set 2):
Oligonucleotide,fluorescence intensity
GCATTGATCAATTTGCACGATGGAAAATTTTTCACT,89.1 a.u.
TTGTTGAGTAATCGGCACGTCACCGCACAACAGCCG,60.5 a.u.
CTTTCCCGATCTTGCGCAGTGGGTGTAGCACATTTG,73.7 a.u.
TGGCGCTGGGGTCCTCACGGGCGCTTTGTTCAAGTC,63.3 a.u.
